Published values from different studies.
Every numbered part comes from another study and shows a few of its results, in no order. Positions count from the first letter of the parent shown.

Block 1 — technique: RNAcompete; molecule type: RNA; sample: in vitro; tested at: 20 nM; notes: 7-mer, probes averaged, single round; relative to: mean of 7-mers; reading: higher = stronger binding
Target: PABPC1L2, full length, GST fusion (mouse, UniProt A0ABA7IW68)
Target sequence (chain): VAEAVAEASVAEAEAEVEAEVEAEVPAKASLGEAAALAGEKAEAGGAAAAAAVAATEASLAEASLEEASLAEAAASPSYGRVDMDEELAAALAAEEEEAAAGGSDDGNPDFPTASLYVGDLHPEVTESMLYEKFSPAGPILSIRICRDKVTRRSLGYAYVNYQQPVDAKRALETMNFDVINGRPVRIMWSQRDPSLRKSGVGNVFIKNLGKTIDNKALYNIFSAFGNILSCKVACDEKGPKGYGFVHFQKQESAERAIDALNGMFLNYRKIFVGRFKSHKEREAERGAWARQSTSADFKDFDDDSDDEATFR
With `UCCAGGG` the 7-mer Z-score was -0.0554.
With `UGCCUGG` the 7-mer Z-score was -0.186.
With `UCGUUUC` the 7-mer Z-score was -0.541.
The 7-mer Z-score of `UUCUGCA` is reported as -0.278.
The 7-mer Z-score of `CAUUCAU` is reported as -0.233.
`UCUAUCA` gave a 7-mer Z-score of -0.267.
`AUAGUGU` gave a 7-mer Z-score of -0.186.
For `UCUCCGU`, the 7-mer Z-score was -0.369.
The 7-mer Z-score of `AUGUGUG` is reported as -0.184.
For `GCUGUGA`, the 7-mer Z-score was -0.146.
`GACUGUA` has a 7-mer Z-score of -0.0826.
With `CAUGACC` the 7-mer Z-score was 0.00254.
The 7-mer Z-score of `UCCGGGA` is reported as -0.0355.
The 7-mer Z-score of `GUUAAAC` is reported as 0.0642.
`AUGAAGA` gave a 7-mer Z-score of 0.0986.
`UACCAUC` has a 7-mer Z-score of -0.347.
`GACGUCA` gave a 7-mer Z-score of -0.229.
`CGCUACG` gave a 7-mer Z-score of -0.162.
`UAAAGUC` has a 7-mer Z-score of 0.441.
For `GUGAGCC`, the 7-mer Z-score was -0.331.
For `CUUUGGA`, the 7-mer Z-score was -0.213.
The 7-mer Z-score of `GUUGGUU` is reported as -0.356.
The 7-mer Z-score of `CUAAUUG` is reported as -0.269.
`CUUUGCC` has a 7-mer Z-score of -0.514.
`GAUCCUG` has a 7-mer Z-score of -0.229.

Block 2 — technique: RNA Bind-n-Seq; molecule type: RNA; sample: in vitro; tested at: 365 nM; relative to: no-protein control; reading: higher = stronger binding
Target: RNA binding protein fox-1 homolog 2, RRM domain, GST-SBP tag (RBFOX2, Homo sapiens, UniProt O43251-10, residues 100-194)
Notes: natural RNA segment, single round, ends assumed
Target sequence (chain): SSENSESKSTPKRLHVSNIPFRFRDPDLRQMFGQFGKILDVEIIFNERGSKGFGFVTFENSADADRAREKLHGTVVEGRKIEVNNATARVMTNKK
Under “RBNS enrichment (R)”, `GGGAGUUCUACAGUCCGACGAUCGUGACCACAUCGAGCAAAUGGCCACAGAUAGGAGAUCAGCACGUGCUCGUCUCCUAGGAUCUGUCACCCCAGUGAUGACCCUGCAUGACACCAGCAGCACCCAGAGCCGCUGGAAUUCUCGGGUGCCAA` is recorded as 10.2.
`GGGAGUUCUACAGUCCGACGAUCGCCCAGGCCGGCCAUCUUCUGCUGCUGGUACUUGGAUGGGCAAUGGUCACUGUGUUUCCACACAGCAAAAACAGACGUAGCCAUAUCAGAUGGAAAACAUGCAUAGACACUGGAAUUCUCGGGUGCCAA`: “RBNS enrichment (R)” 0.477.
Under “RBNS enrichment (R)”, `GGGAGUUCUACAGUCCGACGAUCUUUUUUUCAAUACUGUAUAAAAAUAGUAUUCUGAUUACCUCCCCCUCAAUAAAAAAAAAGUCCAGAUAAUUGCUUUUGAUAUUGAUGGAAAAACUACAAAACAGACACAAUGGAAUUCUCGGGUGCCAA` is recorded as 0.493.
`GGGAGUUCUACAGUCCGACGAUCACCUAGAAGACACCAUAAUCAGUUUAUUUACAACAACCACAUCAUCAGUUGCUUUUGUCGAACAUCAGCAUCAUGUUUUAAAUGUUGUGGUCCUGGAUGCCCAGCUGGGCUGGAAUUCUCGGGUGCCAA` — result for “RBNS enrichment (R)”: 0.275.
For `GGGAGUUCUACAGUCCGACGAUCUCCCGAAAUAAAACACAACAAAAAAAACCCCACCCCAUAAUCUUCAGGACAGUCUGUCUUAAAUUUCAUAUGAGAACUUCUUCCUCCCUUUGAAGAUCUGUCCAUAUUCAUGGAAUUCUCGGGUGCCAA`, “RBNS enrichment (R)” read 0.835.
`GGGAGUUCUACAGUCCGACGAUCCAGACUGACUAACAUGCAUUAGCAAAUGGAGCAUCAGUAGGUAGCAACAUGAUAAUUUAUGUAACUGAUAGCUUCUGUCCUUAUUAGUACACUUAACAUUUGAGACUAGUUGGAAUUCUCGGGUGCCAA` — result for “RBNS enrichment (R)”: 1.86.
For `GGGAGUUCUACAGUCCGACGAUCCAGGCGAAGCUGGGUCUUGUGCAUGUUCCCACUGUUUCAUCCUGUCCUCGCCAGGGAUCUGGGUGGGACAGUCACACCCACGGCCUGCUACCCACCAGGUUGUACUUAACUGGAAUUCUCGGGUGCCAA`, “RBNS enrichment (R)” read 4.52.
Under “RBNS enrichment (R)”, `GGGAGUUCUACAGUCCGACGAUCUCUGGGCCUAGGAUGGCAUUGGCCCUCGAUGCUAGAGUUGGCUGCAUUCUCUCCUUACCUGCAGACUAUGCACAGUUCCUGGAGCAGAGGGAGAGGUGGUGUGGCUUGCCUGGAAUUCUCGGGUGCCAA` is recorded as 0.854.

Block 3 — target: CCNE2, cyclin fold, Cln2 fusion (human); technique: yeast growth competition, sequencing; sample: yeast; notes: weak parent motif; relative to: not given; reading: higher = stronger binding
Starting sequence: USP37 docking peptide (human); PSAKRSLGFLPQP
`G8A`: “normalised enrichment score” 0.464.
`K4A` — result for “normalised enrichment score”: 0.427.
Under “normalised enrichment score”, `S2A` is recorded as 0.209.
Under “normalised enrichment score”, `S6A` is recorded as 0.702.
For `L7A`, “normalised enrichment score” read 0.167.
`R5A` — result for “normalised enrichment score”: 0.162.

Block 4 — technique: universal PBM; molecule type: double-stranded DNA, one strand shown; sample: in vitro; tested at: not given; reading: higher = stronger binding
Target: Sal-like protein 4, full length isoform B (SALL4, Homo sapiens, UniProt Q9UJQ4-2, residues 1-616)
Notes: 8-mer, flanks averaged, mean of replicates
`TACTAATA` gave an E-score of 0.284.
`TACACGAA` has an E-score of 0.0909.
For `TAAGGCTA`, the E-score was 0.111.
With `ACCGAGAC` the E-score was -0.205.
`CATGCGCA` gave an E-score of 0.0167.
For `CGAACAGA`, the E-score was 0.115.
`TGCGGTAA` has an E-score of 0.178.
`ACTTAAAA` gave an E-score of 0.201.
`GCGCCTCA` gave an E-score of -0.282.
With `ATTTTGAA` the E-score was 0.346.
With `AATCCTGC` the E-score was -0.0446.
`CACATTCC` gave an E-score of 0.0215.
With `ATTAACAG` the E-score was 0.154.
`CCTGTAAA` has an E-score of 0.0438.
`CCAGATGA` has an E-score of -0.029.
The E-score of `AAGGCATC` is reported as -0.154.
For `TCGTAGAA`, the E-score was 0.0575.
